{"data": "Assay results gathered from unrelated publications", "ALK": "ALK tyrosine kinase receptor (ALK, Homo sapiens, UniProt Q9UM73)", "Nuclear receptor subfamily 2 group C member 2 ligand-binding domain": "Nuclear receptor subfamily 2 group C member 2, ligand-binding domain (Homo sapiens, UniProt P49116)", "note": "pEC50, pKd: −log10 of the molar value.", "sequence of UniProt P49116 (whole entry, looked up)": "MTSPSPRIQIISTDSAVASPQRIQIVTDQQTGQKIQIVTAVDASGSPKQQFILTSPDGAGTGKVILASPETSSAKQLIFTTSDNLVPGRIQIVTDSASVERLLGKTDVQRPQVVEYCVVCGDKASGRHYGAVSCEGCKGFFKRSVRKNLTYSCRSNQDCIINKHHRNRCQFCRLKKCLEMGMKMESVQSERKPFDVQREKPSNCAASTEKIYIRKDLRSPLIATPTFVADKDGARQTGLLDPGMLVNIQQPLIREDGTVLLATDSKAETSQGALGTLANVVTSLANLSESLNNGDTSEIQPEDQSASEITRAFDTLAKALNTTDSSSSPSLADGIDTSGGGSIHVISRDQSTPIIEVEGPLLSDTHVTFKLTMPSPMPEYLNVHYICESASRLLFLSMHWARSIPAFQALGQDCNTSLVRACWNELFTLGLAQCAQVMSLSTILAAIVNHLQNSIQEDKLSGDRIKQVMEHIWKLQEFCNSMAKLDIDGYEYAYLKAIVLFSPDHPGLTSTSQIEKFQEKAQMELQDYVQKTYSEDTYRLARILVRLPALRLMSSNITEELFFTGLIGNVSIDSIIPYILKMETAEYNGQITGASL", "sequence of UniProt Q04206 (whole entry, looked up)": "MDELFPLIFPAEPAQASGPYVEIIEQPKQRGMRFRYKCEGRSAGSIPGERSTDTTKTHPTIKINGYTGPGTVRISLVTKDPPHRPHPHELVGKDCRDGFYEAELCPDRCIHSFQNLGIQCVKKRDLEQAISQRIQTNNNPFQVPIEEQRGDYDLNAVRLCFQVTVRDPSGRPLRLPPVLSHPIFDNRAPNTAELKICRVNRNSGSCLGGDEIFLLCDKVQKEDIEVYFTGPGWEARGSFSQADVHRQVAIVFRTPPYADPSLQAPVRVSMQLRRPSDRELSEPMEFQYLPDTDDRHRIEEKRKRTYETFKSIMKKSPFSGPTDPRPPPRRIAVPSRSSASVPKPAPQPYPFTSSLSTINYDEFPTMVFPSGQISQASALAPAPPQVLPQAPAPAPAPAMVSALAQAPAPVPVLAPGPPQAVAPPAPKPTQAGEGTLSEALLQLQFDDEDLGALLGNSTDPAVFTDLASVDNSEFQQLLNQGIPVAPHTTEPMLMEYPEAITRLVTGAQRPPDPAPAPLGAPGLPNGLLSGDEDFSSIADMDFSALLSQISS", "sequence of UniProt P61981 (whole entry, looked up)": "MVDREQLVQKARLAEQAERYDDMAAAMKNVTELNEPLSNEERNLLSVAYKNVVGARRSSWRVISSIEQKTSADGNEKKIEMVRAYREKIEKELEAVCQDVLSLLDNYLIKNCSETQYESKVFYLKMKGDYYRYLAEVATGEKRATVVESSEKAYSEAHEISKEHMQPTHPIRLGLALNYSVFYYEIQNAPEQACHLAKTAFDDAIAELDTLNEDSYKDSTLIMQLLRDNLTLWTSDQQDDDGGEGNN"}
{"Structure (SMILES)": "CCOc1cc(N2CCN(C)CC2)ccc1Nc1nc(N)n(C(=O)NCc2ccccc2S(=O)(=O)C(C)C)n1", "tested on": "ALK", "assay": "enzyme activity", "setting": "10 µM", "scale": "relative to: control", "endpoint": "remaining activity", "value": "11%"}
{"Structure (SMILES)": "[2H]c1cc(C)c(NC(=O)c2cnc(Nc3cc(N4CCCCC4)nc(C)n3)s2)c(Cl)c1", "tested on": "ALK", "setting": "0.01 µM", "endpoint": "inhibition", "value": "< 30%"}
{"Structure (SMILES)": "Clc1ccc(CCC(Cn2ccnc2)Sc2c(Cl)cccc2Cl)cc1 (stereo not shown)", "tested on": "Nuclear receptor subfamily 2 group C member 2 ligand-binding domain", "assay": "SPR imaging", "endpoint": "pKd", "value": 10.73}
{"Structure (SMILES)": "COc1cc(N2CCN(C)CC2)ccc1Nc1nc(N)n(C(=S)NCc2c(Cl)cccc2Cl)n1", "tested on": "ALK", "assay": "enzyme activity", "setting": "10 µM", "scale": "relative to: control", "endpoint": "remaining activity", "value": "0.1%"}
{"Structure (SMILES)": "c1cnc2ccc(Nc3nc(NC4CC4)c4nc[nH]c4n3)cc2c1", "tested on": "ALK", "assay": "kinase activity, inhibitor, SelectScreen kinase profiling", "setting": "1 µM", "scale": "relative to: control", "endpoint": "remaining activity", "value": "78%"}
{"Structure (SMILES)": "O=C(NC1CCC1)c1ccc2nc(-c3cccc(NS(=O)(=O)NCCN4CCCCC4)c3)cn2c1", "tested on": "ALK", "assay": "enzyme activity", "setting": "10 µM", "endpoint": "remaining activity", "value": "66%"}
{"Structure (SMILES)": "Cc1cc(Nc2cc(N3CCN(C)CC3)nc(Sc3ccc(NC(=O)C4CC4)cc3)n2)[nH]n1", "tested on": "ALK", "assay": "kinase activity, KinaseProfiler", "setting": "0.03 µM, species human", "scale": "relative to: control", "endpoint": "remaining activity", "value": "92%"}
{"Structure (SMILES)": "CC(C)Oc1cc(N2CCN(C)CC2)ccc1Nc1nc(N)n(C(=O)NCc2ccccc2S(=O)(=O)C(C)C)n1", "tested on": "ALK", "assay": "enzyme activity", "setting": "10 µM", "scale": "relative to: control", "endpoint": "remaining activity", "value": "8.2%"}
{"Structure (SMILES)": "O=C(O)CCNc1cc(N2CCc3ccccc3CC2)nc(-c2ccccn2)n1", "tested on": "OCI-Ly1", "setting": "1 µM, 120 h", "endpoint": "viability", "value": "106%"}
{"Structure (SMILES)": "C[C@H](CCC(=O)O)[C@H]1CC[C@H]2[C@@H]3[C@H](O)C[C@@H]4C[C@H](O)CC[C@]4(C)[C@H]3CC[C@]12C", "tested on": "Nuclear receptor subfamily 2 group C member 2 ligand-binding domain", "assay": "SPR imaging", "endpoint": "pKd", "value": 10.74}
{"Structure (SMILES)": "CC1CCN(c2cc(C=O)ccc2[N+](=O)[O-])CC1", "tested on": "YWHAG/RELA, phospho-Ser45 p65 peptide (Homo sapiens, UniProt P61981+Q04206)", "assay": "ternary complex formation, stabilizer, fluorescence anisotropy", "endpoint": "pEC50", "value": "< 3.00"}
{"Structure (SMILES)": "CC/C(=N\\NC(=O)NCc1cccc(O)c1)c1ccc(O)c(C)c1O", "tested on": "ALK tyrosine kinase receptor, EML4-ALK fusion (ALK, Homo sapiens, UniProt Q9UM73)", "assay": "kinase activity", "setting": "0.1 µM", "endpoint": "inhibition", "value": "-4.5%"}
{"Structure (SMILES)": "COc1cc(F)ccc1-c1ncnc(Nc2cccc(C[S@](C)(=N)=O)c2)n1", "tested on": "ALK", "assay": "kinase activity", "setting": "10 µM, together with: 10 µM ATP", "endpoint": "remaining activity", "value": "91%"}
{"note": "Repeated from above:"}
{"Structure (SMILES)": "CC(C)Oc1cc(N2CCN(C)CC2)ccc1Nc1nc(N)n(C(=O)NCc2ccccc2S(=O)(=O)C(C)C)n1", "tested on": "ALK", "assay": "enzyme activity", "setting": "10 µM", "scale": "relative to: control", "endpoint": "remaining activity", "value": "8.2%"}
{"Structure (SMILES)": "Clc1ccc(CCC(Cn2ccnc2)Sc2c(Cl)cccc2Cl)cc1 (stereo not shown)", "tested on": "Nuclear receptor subfamily 2 group C member 2 ligand-binding domain", "assay": "SPR imaging", "endpoint": "pKd", "value": 10.73}
